Published values collected from several papers.
Numbered parts are unrelated; each lists some results of a single study.

Series 1
Target: RNA binding protein fox-1 homolog 2, RRM domain, GST-SBP tag (RBFOX2, Homo sapiens, UniProt O43251-10, residues 100-194)
Method: RNA Bind-n-Seq
Molecule type: RNA
Medium: in vitro
Concentration: 365 nM
Notes: natural RNA segment, single round, ends assumed
Reference: no-protein control
Reading: higher = stronger binding
Construct (chain): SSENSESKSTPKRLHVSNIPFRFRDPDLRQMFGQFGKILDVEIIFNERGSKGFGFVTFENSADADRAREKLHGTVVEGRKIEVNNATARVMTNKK
Sequence | RBNS enrichment (R)
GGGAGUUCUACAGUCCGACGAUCUUGUGGGGAGUGCGCUCCAGGAAGAGCCACCAUCCCUGCCCCCGUUUUCCCACCGGGGAGUCUGUACAGAGAUUUUUCUACGUUUUUAUUUUUUGCCUCAGAGGGAUGGGUGGAAUUCUCGGGUGCCAA | 0.696
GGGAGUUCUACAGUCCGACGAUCAAAAUAACUUAAAUGCCCCUCCCCGGCCGCCUCCAAUUUCCAUUGGUUUCCAUGUGGCAAGAUCCCCGAGAAAACACAGCUAGGUGACUUUCUGACAAGCUGAAGCUAAUUGGAAUUCUCGGGUGCCAA | 0.768
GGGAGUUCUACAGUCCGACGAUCCUCUUGACUAUUUAGAUUCUAGUUAAAUAUCUGGAAUCCUAGCAGUCACUACAUUAUCUCAGCAGAGAGACUUUAAUUAAACUGAUUUGUUUCCAAUGUCGGGUUCACUUUGGAAUUCUCGGGUGCCAA | 0.359
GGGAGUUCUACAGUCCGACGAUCAGCGAUUCUCUUGCCUCAGCCUCCAGAGUAGCUGGGAUUACAGGCGCCCGCCAUCGUGCCCAGCUAAUUUUUAUAUUUUUAGUGGAGACAGGGUUUCGGGUUUCACCAUGUGGAAUUCUCGGGUGCCAA | 0.294
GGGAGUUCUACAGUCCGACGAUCCUGCGGCCUCCGGAGCGCUUUCUCUGAAGCGACUGCACGUUCCUGCUGCUCUCCGAUCUCAUCAGACAGUAGAAUGUAGGGAAAAGCUUUUGCCCGAUGGAUUUUGAAAAUGGAAUUCUCGGGUGCCAA | 0.981
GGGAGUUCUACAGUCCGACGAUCUUGUGCUCUGCUUGGACAGCAGGCCUGGCACUGGGAGGUGGGGGUGAGCCCCUCACAGCCUUGCCCCUCCCCAAGGCUGGCAACCUGCCUCCCAUUGCCCAAGAGAGAGGUGGAAUUCUCGGGUGCCAA | 0.653
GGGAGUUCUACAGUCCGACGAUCACACUGCUGAACCUUUCCUCUGGGACCCCCUGUGGCCCUCGCUCUGCCUCCUGUCCUUGUCGCUGUGCCCUGGUUUCCCUCCUCGGGCUUCUCGCCCCUCAGUGGUUUCCUGGAAUUCUCGGGUGCCAA | 0.295
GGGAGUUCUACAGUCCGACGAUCAAGCGUGGACGUGUGUCCCCAUGGCUUGUGGAUCAGCUAAGCUCGGGAUCAUUUCCAUAAGUCUGCUUUUCAGGGAUUCUCUGCUGGUGCUGGUGCAAGGACUUCUGUUCUGGAAUUCUCGGGUGCCAA | 0.359

Series 2
Target: Myc proto-oncogene protein, bHLH-zipper, MAX partner unstated (MYC, Homo sapiens, UniProt P01106, residues 368-449)
UniProt P01106, sequence (368-449, looked up): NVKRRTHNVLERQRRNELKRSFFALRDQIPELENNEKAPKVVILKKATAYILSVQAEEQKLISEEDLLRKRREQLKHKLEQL
Method: protein-binding microarray
Molecule type: double-stranded DNA, one strand shown
Medium: in vitro
Concentration: not given
Notes: k-mer, scored over probes, only values ≥0.25
Reading: higher = stronger binding
Sequence | E-score
CGTGGGTC | 0.306
GTGTCGTA | 0.253
ATCACGCA | 0.255
AAGCACGC | 0.436
CCACCCCC | 0.28
ACGTGGAA | 0.406
CTCATGGC | 0.402
CACGCCGA | 0.369
ATGCGGCG | 0.299
ATCGTGGA | 0.264
TGCGCGCA | 0.296
GTGGCCAA | 0.286
GCGAGGCC | 0.285
ACCACGGG | 0.327
GCACACGA | 0.342
TAGCACGA | 0.299
CAGCACGA | 0.311
CATGCCCG | 0.344

Series 3
Target: Centromere-binding protein 1, full length, N-terminal tag (CBF1, Saccharomyces cerevisiae, UniProt P17106, residues 1-351)
UniProt P17106, sequence (whole entry, looked up): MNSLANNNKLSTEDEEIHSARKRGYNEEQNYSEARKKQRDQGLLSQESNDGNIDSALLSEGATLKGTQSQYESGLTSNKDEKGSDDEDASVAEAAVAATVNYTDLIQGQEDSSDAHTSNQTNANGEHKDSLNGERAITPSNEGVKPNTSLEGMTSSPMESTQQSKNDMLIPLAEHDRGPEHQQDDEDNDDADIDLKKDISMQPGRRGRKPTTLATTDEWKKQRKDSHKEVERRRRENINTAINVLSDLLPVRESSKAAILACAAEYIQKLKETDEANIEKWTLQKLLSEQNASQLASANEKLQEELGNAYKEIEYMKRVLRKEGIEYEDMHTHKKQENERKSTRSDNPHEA
Method: protein-binding microarray
Molecule type: double-stranded DNA, one strand shown
Medium: in vitro
Concentration: 0.8 µM
Notes: whole 60-bp probe, no competitor
Reading: higher = stronger binding
Sequence | fluorescence intensity
CTACCAGTTAGGTACCATGTGGCATGCTGTTTTTTCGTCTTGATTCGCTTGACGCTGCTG | 620 a.u.
CCTAACTACTATAACGTCAGAATATAGCTTCGTACAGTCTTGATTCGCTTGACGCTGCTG | 500 a.u.
CTACGCTTAATACAACACGTCGGCTTTCGCTCATTCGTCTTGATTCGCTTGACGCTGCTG | 534 a.u.
CTACGATGTTCAAACAACGTGTTATCAGAGAAATTCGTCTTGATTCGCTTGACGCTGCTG | 610 a.u.
GAACAAAAATTTTATCACGCTCGAGGTTAGAAGTAGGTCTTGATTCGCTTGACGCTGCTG | 663 a.u.
CTAATATGCATATATACCGTCATGAAGTAGCTTTTCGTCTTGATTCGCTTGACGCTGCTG | 520 a.u.
GAACCCGTACCAGGAAGCGTGATAGAATCGGTATAGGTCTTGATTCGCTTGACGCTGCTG | 627 a.u.
GAAATTTTTTGCATCCATGATCACTGTTGGTAATAGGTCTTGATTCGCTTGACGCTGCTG | 569 a.u.
CTAATTACTATTATACATGTGATATCAGAACGGTTCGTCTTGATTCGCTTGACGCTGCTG | 1970 a.u.
GAAAACTAGTTCGATCACGAATTAATCCAATCTTAGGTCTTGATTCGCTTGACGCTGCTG | 541 a.u.
GAAAATACATTATCATACATGATGCAAAAATACTAGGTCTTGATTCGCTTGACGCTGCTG | 550 a.u.
CTATGCATTATACAGAACGTGCTGAAAATGTAGTTCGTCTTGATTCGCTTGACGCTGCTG | 989 a.u.
GAAACGACACCATGTCTGATGCATTTTAGAAACTAGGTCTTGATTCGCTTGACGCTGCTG | 521 a.u.
CTAAAGCGTAATTCTCTCAGCTGAACAAGAACTTTCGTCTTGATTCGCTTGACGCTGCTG | 528 a.u.
GAATTCATTTACTGTCACGGACTACTTTCATCATAGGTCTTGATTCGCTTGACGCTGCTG | 815 a.u.
GAACTTGGAATGTGTCACGTTGGGCATTTTTAATAGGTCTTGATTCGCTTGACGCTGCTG | 1640 a.u.
CCTAACTACTATATTCACACGAGATAGCTTCGTACAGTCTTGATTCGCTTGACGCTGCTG | 593 a.u.
GAAATGCTTTTGGGTTATCACGTTCAACAAGGATAGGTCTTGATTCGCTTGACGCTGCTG | 995 a.u.
CTATCACTTTCTGGGCACGATTGTAATAATACTTTCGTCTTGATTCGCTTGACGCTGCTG | 610 a.u.

Series 4
Target: Histone acetyltransferase KAT6A, both winged helices, GST fusion (KAT6A, Homo sapiens, UniProt Q92794, residues 1-181)
Method: protein binding microarray
Molecule type: double-stranded DNA, one strand shown
Medium: in vitro
Concentration: not given
Notes: 8-mer, flanks averaged, mean of 2 arrays, mostly near background
Reference: not given
Reading: higher = stronger binding
Residues (chain): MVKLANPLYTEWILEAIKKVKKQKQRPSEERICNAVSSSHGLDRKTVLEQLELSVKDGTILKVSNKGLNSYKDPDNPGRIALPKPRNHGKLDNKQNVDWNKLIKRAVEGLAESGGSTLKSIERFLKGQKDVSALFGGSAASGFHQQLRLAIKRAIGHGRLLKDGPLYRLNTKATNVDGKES
Sequence | E-score
AAGGCCAG | -0.11
GACGTTCA | 0.127
CCCAGCGC | 0.164
CGGCAGGC | 0.165
CCGGTCCG | 0.277
AGCAAAGG | -0.185
ACCGAGAT | 0.00217
CCGTAATC | 0.187
GACTTTGC | 0.0779
ACGCGCCG | 0.324
ACCCATGC | 0.00668
AGTAGTCC | -0.00859
GCTGGGTA | -0.099
CCGGGTGC | 0.237
AAGGATGC | -0.16
AAAACCCG | 0.264
CCCTCCAA | -0.115
ATCCTGCA | -0.248
GGCCAACC | -0.0459
AGGTTCCA | -0.116
AAACTCGT | -0.0148
CAGGAGGA | -0.108
ACTATACG | 0.128
GACAAACC | -0.117
CGATGAGA | -0.0794

Series 5
Target: Ras GTPase-activating protein-binding protein 1, RRM domain (G3BP1, Homo sapiens, UniProt Q13283)
UniProt Q13283, sequence (whole entry, looked up): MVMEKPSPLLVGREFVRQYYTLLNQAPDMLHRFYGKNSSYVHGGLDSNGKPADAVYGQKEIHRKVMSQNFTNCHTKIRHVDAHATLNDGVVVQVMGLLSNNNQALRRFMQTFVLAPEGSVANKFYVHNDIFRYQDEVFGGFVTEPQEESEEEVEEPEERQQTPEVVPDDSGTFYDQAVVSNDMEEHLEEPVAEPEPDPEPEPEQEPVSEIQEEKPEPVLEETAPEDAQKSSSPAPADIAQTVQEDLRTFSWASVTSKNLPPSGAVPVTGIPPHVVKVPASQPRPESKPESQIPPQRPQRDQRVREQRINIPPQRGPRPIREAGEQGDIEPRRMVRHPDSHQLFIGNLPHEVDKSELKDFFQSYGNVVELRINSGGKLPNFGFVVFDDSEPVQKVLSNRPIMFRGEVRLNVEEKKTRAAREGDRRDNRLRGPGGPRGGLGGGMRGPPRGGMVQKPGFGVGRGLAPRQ
Method: RNA Bind-n-Seq
Molecule type: RNA
Medium: in vitro
Concentration: 1 µM
Notes: whole 134-nt RNA, ends assumed
Together with: 150 mM KCl
Reference: input library
Reading: higher = stronger binding
Sequence | log2 enrichment
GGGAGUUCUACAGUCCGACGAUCCCUCAAGUCCUGUGCUACACAUCGUAUGUACCGAAUCGGGAGGGGAGGGAGGGAAAGUAUUAUGUUACGCCGUUCGGAUCUGCACUUCCAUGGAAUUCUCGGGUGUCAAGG | 0.887
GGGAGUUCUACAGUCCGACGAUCUGUGCUACACAUCGUAUGUACCGAAUCGGGGAAAAAAAGGGAAAAAAAGGGGAAAAAAAGGGGAAAGUAUUAUGUUACGCCGUUCGGAUCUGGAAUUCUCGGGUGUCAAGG | 0.0491
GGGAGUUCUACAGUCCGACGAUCUUUCAAAGCCAAAGGGCCUUGUGACGCCCCUCUUGCCCACCUCCCUCCACACCGUGUCCUCCCCUAUAUGACAAUCAAUGUGACCUCUCUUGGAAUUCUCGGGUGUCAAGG | 0.0784
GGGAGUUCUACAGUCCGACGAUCCCUCAAGUCCUGUGCUACACAUCGUAUGUACCGAAUCGGAGGGGAGGGAGGGGAAAGUAUUAUGUUACGCCGUUCGGAUCUGCACUUCCAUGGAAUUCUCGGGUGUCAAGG | 0.443
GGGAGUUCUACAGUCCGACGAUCUCCUGUGCUACACAUCGUAUGUACCGAAUCGGGUUUGGGAAAAAAAGGGAAAAAAAGGGAAAGUAUUAUGUUACGCCGUUCGGAUCUGCAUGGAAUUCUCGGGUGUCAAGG | 0.279
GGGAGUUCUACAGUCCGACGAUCCUCAAGUCCUGUGCUACACAUCGUAUGUACCGAAUCGGUUGGGGUUGGGGUUGGAAAGUAUUAUGUUACGCCGUUCGGAUCUGCACUUCCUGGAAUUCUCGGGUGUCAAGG | -0.23
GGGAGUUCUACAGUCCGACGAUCCACAGACAACACGCACCCACACAGACACAGAGGGAAGGGGUUGGGAUGGGGACAGGGUGCACAGCAGGGUGGGGUAGGACCCCAGCCCCUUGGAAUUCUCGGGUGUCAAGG | -0.339
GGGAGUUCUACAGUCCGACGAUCGUCCUGUGCUACACAUCGUAUGUACCGAAUCGGGAAAGGGUUUUUUUGGGAAAAAGGGAAAGUAUUAUGUUACGCCGUUCGGAUCUGCACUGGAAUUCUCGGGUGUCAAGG | 0.198
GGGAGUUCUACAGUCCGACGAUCACCAUGCAGGUGGGCAUCUUUGGGAAGUGGGGCAAGGGGGGGAUAGGGAGGGGGGUAACACUUUGGGAACAGGAAAUCCCAGGUCGUUUCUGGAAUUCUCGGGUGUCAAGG | -0.379

A few entries again (series 3):
Sequence | fluorescence intensity
GAAATGCTTTTGGGTTATCACGTTCAACAAGGATAGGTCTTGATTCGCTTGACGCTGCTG | 995 a.u.
GAATTCATTTACTGTCACGGACTACTTTCATCATAGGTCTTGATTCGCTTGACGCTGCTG | 815 a.u.
CTACCAGTTAGGTACCATGTGGCATGCTGTTTTTTCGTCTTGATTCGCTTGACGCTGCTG | 620 a.u.
CCTAACTACTATATTCACACGAGATAGCTTCGTACAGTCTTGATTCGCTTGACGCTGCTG | 593 a.u.
GAACCCGTACCAGGAAGCGTGATAGAATCGGTATAGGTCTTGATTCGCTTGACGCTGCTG | 627 a.u.
GAAACGACACCATGTCTGATGCATTTTAGAAACTAGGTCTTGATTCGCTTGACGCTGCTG | 521 a.u.
CTAATATGCATATATACCGTCATGAAGTAGCTTTTCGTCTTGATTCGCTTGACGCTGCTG | 520 a.u.
GAAAACTAGTTCGATCACGAATTAATCCAATCTTAGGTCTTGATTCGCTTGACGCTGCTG | 541 a.u.
CTACGATGTTCAAACAACGTGTTATCAGAGAAATTCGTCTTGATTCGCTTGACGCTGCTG | 610 a.u.
GAAATTTTTTGCATCCATGATCACTGTTGGTAATAGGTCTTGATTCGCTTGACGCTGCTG | 569 a.u.
CTAATTACTATTATACATGTGATATCAGAACGGTTCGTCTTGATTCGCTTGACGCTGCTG | 1970 a.u.
